Measured values of several laboratories.
Parts stem from different laboratories: compare values within a part only. Values joined by “and” are separate records of one study, mostly repeats; a detail may differ.
Chain of UniProt Q15759 (whole entry, looked up): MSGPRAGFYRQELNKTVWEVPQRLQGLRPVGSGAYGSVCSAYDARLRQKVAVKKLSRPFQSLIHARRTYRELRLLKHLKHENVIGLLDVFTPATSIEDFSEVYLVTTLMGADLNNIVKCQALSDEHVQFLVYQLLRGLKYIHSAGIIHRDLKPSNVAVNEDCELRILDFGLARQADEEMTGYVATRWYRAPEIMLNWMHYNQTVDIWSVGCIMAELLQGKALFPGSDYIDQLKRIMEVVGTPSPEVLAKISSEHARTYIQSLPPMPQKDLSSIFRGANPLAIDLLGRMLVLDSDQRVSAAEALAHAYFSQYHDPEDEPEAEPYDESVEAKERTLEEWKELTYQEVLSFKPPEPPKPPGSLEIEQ
Chain of UniProt Q13464 (whole entry, looked up): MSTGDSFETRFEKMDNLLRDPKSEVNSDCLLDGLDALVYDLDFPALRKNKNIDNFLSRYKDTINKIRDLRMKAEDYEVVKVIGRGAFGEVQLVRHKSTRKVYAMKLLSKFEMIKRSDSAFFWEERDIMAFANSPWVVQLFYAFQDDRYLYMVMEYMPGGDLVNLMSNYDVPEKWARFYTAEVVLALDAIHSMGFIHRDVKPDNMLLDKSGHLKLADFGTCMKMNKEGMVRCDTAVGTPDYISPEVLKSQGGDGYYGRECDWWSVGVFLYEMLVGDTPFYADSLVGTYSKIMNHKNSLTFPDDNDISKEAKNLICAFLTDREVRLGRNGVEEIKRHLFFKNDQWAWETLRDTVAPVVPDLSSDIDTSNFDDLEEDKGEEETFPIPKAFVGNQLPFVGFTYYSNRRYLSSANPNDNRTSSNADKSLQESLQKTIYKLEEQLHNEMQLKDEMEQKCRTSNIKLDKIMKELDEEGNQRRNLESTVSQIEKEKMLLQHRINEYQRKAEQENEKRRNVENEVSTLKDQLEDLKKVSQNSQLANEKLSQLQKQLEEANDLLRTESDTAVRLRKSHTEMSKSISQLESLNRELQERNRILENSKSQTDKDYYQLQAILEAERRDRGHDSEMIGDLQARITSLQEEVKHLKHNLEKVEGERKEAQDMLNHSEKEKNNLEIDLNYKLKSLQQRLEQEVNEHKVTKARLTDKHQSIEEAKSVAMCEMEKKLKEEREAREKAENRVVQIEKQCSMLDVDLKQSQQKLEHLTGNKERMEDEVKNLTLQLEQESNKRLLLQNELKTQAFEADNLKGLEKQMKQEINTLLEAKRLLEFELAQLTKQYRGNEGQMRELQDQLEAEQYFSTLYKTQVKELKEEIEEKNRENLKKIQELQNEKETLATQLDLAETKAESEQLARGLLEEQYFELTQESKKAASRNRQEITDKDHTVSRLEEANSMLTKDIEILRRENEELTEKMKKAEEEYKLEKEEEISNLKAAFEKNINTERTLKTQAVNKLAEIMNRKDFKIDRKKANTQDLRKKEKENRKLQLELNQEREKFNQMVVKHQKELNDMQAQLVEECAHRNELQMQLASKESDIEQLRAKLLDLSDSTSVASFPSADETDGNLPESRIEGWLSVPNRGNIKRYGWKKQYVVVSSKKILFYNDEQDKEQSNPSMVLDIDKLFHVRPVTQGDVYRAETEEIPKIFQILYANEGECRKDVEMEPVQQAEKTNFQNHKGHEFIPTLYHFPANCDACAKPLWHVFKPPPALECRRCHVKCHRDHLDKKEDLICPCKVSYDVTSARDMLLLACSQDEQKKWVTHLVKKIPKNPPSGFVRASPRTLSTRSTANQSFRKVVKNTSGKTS
Chain of UniProt P31751 (whole entry, looked up): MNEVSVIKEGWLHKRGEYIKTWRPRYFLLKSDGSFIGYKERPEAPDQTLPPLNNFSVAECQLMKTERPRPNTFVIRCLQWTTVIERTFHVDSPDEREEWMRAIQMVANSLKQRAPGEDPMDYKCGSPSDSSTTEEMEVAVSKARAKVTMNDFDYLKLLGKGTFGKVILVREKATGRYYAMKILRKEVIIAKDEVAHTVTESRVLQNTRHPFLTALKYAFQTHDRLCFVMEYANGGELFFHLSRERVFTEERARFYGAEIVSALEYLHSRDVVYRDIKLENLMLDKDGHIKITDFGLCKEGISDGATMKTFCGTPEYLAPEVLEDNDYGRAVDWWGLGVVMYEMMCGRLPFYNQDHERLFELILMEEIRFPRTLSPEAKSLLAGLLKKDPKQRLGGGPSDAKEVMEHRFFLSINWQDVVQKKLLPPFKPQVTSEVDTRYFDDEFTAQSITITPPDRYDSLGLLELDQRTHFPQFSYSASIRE
Chain of UniProt Q9Y5S2 (whole entry, looked up): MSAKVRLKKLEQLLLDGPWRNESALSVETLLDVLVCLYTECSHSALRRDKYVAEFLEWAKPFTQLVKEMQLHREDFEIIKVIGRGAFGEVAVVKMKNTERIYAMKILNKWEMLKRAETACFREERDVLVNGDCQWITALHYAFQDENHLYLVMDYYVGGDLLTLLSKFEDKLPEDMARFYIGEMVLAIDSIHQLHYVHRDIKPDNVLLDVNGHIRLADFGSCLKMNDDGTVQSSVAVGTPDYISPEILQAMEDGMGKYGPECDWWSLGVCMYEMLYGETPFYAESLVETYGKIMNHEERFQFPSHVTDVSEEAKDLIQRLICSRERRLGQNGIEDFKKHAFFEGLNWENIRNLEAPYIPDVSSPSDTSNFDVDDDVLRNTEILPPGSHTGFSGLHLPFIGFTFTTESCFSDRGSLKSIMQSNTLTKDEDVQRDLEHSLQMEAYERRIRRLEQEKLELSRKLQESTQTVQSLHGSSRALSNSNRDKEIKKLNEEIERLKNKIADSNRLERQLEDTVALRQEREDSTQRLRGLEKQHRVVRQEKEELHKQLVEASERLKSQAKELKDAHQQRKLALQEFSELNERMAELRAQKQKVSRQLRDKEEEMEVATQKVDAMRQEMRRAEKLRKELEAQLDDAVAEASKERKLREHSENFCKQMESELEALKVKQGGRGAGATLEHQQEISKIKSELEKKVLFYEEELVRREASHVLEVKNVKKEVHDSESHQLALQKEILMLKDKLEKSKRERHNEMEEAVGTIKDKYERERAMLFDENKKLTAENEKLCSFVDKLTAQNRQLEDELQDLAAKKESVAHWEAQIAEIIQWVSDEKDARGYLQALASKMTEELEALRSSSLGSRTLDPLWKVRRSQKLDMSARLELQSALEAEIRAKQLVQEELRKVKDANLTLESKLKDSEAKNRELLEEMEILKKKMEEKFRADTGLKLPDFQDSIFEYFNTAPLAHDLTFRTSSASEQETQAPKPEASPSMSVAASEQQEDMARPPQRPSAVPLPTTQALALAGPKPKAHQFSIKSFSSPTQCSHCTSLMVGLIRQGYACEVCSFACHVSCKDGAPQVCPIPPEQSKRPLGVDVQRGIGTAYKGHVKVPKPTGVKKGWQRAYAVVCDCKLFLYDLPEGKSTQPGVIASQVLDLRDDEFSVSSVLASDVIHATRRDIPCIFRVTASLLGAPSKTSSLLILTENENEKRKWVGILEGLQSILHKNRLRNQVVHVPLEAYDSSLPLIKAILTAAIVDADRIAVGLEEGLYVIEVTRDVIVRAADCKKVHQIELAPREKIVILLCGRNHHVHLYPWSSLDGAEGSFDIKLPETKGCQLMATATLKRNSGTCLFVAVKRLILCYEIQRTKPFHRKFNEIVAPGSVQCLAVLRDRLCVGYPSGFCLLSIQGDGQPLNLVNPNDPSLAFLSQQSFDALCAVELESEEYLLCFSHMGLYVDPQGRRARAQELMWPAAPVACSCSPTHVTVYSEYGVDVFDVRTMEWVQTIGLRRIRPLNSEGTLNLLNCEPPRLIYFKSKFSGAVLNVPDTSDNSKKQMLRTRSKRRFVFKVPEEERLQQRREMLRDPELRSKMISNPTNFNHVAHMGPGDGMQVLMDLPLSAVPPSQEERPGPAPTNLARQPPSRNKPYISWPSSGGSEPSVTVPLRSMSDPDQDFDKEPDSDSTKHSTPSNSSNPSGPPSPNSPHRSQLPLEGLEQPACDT
Chain of UniProt P32298 (whole entry, looked up): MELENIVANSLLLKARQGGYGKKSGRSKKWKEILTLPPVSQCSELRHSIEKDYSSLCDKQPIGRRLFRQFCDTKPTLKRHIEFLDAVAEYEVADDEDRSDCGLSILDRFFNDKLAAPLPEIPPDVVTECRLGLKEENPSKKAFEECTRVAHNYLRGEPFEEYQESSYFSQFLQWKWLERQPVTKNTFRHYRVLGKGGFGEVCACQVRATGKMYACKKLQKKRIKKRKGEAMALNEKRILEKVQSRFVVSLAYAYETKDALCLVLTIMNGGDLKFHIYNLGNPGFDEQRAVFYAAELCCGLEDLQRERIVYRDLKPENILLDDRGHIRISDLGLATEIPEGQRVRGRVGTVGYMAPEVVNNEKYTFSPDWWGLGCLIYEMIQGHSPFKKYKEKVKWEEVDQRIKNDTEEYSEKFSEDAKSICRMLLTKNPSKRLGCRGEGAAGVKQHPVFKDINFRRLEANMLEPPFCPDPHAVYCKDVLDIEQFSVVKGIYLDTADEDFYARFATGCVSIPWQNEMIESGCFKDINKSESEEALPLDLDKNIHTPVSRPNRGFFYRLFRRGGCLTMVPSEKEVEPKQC
Chain of UniProt P51956 (whole entry, looked up): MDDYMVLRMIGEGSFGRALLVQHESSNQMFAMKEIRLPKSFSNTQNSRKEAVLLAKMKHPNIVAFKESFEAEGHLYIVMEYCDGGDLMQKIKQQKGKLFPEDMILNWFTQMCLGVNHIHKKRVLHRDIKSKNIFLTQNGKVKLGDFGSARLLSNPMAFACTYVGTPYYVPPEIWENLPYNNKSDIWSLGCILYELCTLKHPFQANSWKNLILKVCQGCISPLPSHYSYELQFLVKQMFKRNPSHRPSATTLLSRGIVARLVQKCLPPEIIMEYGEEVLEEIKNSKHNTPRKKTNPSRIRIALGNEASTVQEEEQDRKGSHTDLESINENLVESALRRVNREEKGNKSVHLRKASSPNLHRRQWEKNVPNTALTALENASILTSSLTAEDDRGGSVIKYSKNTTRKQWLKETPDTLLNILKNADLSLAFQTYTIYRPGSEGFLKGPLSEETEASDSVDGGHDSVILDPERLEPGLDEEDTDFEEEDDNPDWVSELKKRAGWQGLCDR

Study 1
Cell line: mouse MPNST tumor cells
Method: high-content nuclear imaging
Measured: cell number
Tested at: 10 µM
Time: 12 h
Notes: mean of 2 replicates
Baseline: plate mean
Reading: higher = more cells
Measurement: nuclei count
CC(C(=O)O)c1ccc2c(c1)[nH]c1ccc(Cl)cc12 (stereo not shown): 0.313 z-score
S=c1nc[nH]c2nc[nH]c12: -2.27 z-score
COc1cc(OC)cc(-c2noc(N3CCN(C)C4(CCN(c5ccnc(C)c5)CC4)C3)n2)c1: -4.24 z-score and -4.58 z-score
CN(CC[C@@H](Oc1ccc(-c2ccccc2)cc1)c1ccc(F)cc1)CC(=O)O: 1.61 z-score
O=C(NC(=O)c1c(F)cccc1Cl)NC1c2ccccc2-c2ccccc21: 0.627 z-score
O=C(N/N=C/c1ccc([N+](=O)[O-])o1)c1ccc(O)cc1: -0.629 z-score
COc1cc(NC(=O)c2ccc(-c3ccc(Cl)cc3)o2)cc(OC)c1: 3.9 z-score
CC(C)COCC(CN(Cc1ccccc1)c1ccccc1)N1CCCC1 (stereo not shown): -0.558 z-score

Study 2
Structure (SMILES): CC[n+]1c(/C=C/N(C)c2ccccc2)n(-c2ccccc2)c2ccc(-c3nc4ccccc4s3)cc21
Observed: enzyme activity
Mode: inhibitor
Tested at: 0.5 µM
Baseline: control
Measurement: remaining activity
DCLK2 (Homo sapiens, UniProt Q8N568): 102%
MAP2K1 (Homo sapiens, UniProt Q02750): 93.5%
PLK3 (Homo sapiens, UniProt Q9H4B4): 104%
NEK3 (Homo sapiens, UniProt P51956): 102%
Cyclin-dependent kinase 9, with cyclin K (CDK9, Homo sapiens, UniProt P50750): 106%
ROCK1 (Homo sapiens, UniProt Q13464): 98.1%
CDC42BPB (Homo sapiens, UniProt Q9Y5S2): 95%
RPS6KA4 (Homo sapiens, UniProt O75676): 94.6%
CAMK4 (Homo sapiens, UniProt Q16566): 93.2%
AKT2 (Homo sapiens, UniProt P31751): 99.6%
GRK4 (Homo sapiens, UniProt P32298): 103%
KDR (Homo sapiens, UniProt P35968): 93.9%
CLK4 (Homo sapiens, UniProt Q9HAZ1): 95.5%
MAPK11 (Homo sapiens, UniProt Q15759): 101%
DDR2 (Homo sapiens, UniProt Q16832): 97.4%
Cyclin-dependent kinase 1, with cyclin A (CDK1, Homo sapiens, UniProt P06493): 98.8%
MAPK1 (Homo sapiens, UniProt P28482): 112%
TXK (Homo sapiens, UniProt P42681): 107%

Study 3
Host: mouse
Sample: microsomes or S9
Tested at: 2 µM
Time: 0.5 h
Measurement: remaining compound
Cc1ccc(OCCn2c(C)c(/C=N/n3cnnc3)c3ccccc32)cc1C: 24.5%
Cc1cccc(C)c1NS(=O)(=O)c1c(C)nc(O)nc1O: 81.9%
CN(Cc1cc(Br)cn1C)c1ncccn1: > 100%
Cn1c(C(=O)Nc2cnn(C(C)(C)C(=O)O)c2)cccc1=O: > 100%
CC(=O)Nc1cccc(C2CCN(CCCn3nc(S(=O)(=O)c4ccc(C)cc4)c4ccccc4c3=O)CC2)c1: 2.32%
Cc1c(C)n(CCCN(C)C)c2ncn(CC(C)C)c(=N)c12: 94.8%

Study 4
SMILES: CCC(=O)N[C@@H]1CC[C@H](C(=O)N(C)c2ccc(-c3nc4ccccc4o3)cc2)C1
Observed: cell-free assay
Method: competition with immobilised ligand
Tested at: 1 µM
Measurement: remaining binding
INSRR (Homo sapiens, UniProt P14616): 100%
MAP4K5 (Homo sapiens, UniProt Q9Y4K4): 91%
IRAK4 (Homo sapiens, UniProt Q9NWZ3): 100%
WEE2 (Homo sapiens, UniProt P0C1S8): 100%
CDKL1 (Homo sapiens, UniProt Q00532): 90%

Repeated from above (study 4):
CDKL1 (Homo sapiens, UniProt Q00532): 90%
WEE2 (Homo sapiens, UniProt P0C1S8): 100%
INSRR (Homo sapiens, UniProt P14616): 100%
IRAK4 (Homo sapiens, UniProt Q9NWZ3): 100%
